Results gathered from unrelated publications.
Each line is one published result; not all experiments were run side by side. ± gives the spread as reported.

CC(C)(CO)NCC1=C(O)C(=O)c2ccccc2C1=O — median lethal concentration (HepG2; MTT; 10% FCS; 24 h): 188 ± 34.7 µM
CC(C)=CCC/C(C)=C/CC/C(C)=C/CNCCOC1C2CC3CC(C2)CC1C3 (stereo not drawn) — CC50 (HepG2; cell growth or viability): 9.4 µg/mL
N=C(N)NCCC[C@H](NC(=O)[C@@H]1CCCN1C(=O)[C@H](CC(N)=O)NC(=O)[C@H](Cc1ccccc1)NC(=O)[C@H](Cc1c[nH]cn1)NC(=O)[C@H](Cc1ccccc1)NC(=O)[C@H](Cc1ccccc1)NC(=O)Cc1ccc2ccccc2c1)C(=O)O — remaining peptide (HepG2; cell lysate; 200 µM, 1 h, added: bortezomib 100 nM): 44%
Cc1cc(O)c2c(C(=O)[O-])[n+]3n(c2c1)CCCC3 — viability (HepG2; cell growth or viability, CCK-8; 30 µM, 24 h): 78.4%
COc1ccc(Nc2c3c(nc4ccccc24)CCC(C)C3)nc1 (stereo not drawn) — inhibition (HepG2; MTT; 50 µM, 24 h, 10% FBS): -10.9 ± 0.34%
O=C1C(O)=C(Nc2ccccc2Cl)C(=O)c2ccccc21 — CC50 (HepG2; cell growth or viability, MTT; 72 h): 180 µM
c1ccc2ncc(Nc3c4c(nc5ccccc35)CCCC4)cc2c1 — inhibition (HepG2; MTT; 50 µM, 24 h, 10% FBS): 16.7 ± 0.65%
O=C1C(O)=C(Nc2cccc(Cl)c2)C(=O)c2ccccc21 — CC50 (HepG2; cell growth or viability, MTT; 72 h): 17 µM
Cc1cccc2c1NC(=O)C2=Cc1ccc(-c2cccc(C(=O)N3CCCN(C)CC3)c2)o1 (mixture of isomers) — CC50 (HepG2; cell viability, MTT; 24 h): > 50 µM
COc1ccc(Nc2c3c(nc4ccc(Cl)cc24)CCCC3)nc1 — inhibition (HepG2; MTT; 50 µM, 24 h, 10% FBS): -3.87 ± 0.18%
CC[C@H](C)[C@H](NC(=O)[C@H](CCC(N)=O)NC(=O)[C@@H](NC(=O)[C@H](CO)NC(=O)CNC(=O)CNC(=O)CNC(=O)[C@@H]1CCCN1C(=O)[C@@H](NC(=O)[C@H](Cc1c[nH]cn1)NC(=O)[C@H](CCCCN)NC(=O)[C@H](CCCCN)NC(=O)CNC(=O)CNC(=O)CNC(=O)[C@@H](N)CSC1CC(=O)N(c2ccc3c(c2)C(=O)OC32c3ccc(N(C)C)cc3Oc3cc(N(C)C)ccc32)C1=O)C(C)C)C(C)C)C(=O)N[C@H](C(=O)N[C@@H](Cc1ccc(O)cc1)C(=O)N[C@@H](CCCCN)C(=O)N1CCC[C@H]1C(=O)N[C@H](C(=O)N[C@@H](CC(=O)O)C(=O)N[C@@H](CC(C)C)C(=O)O)C(C)C)C(C)C (stereo partly drawn) — cellular uptake (HepG2; confocal microscopy; 10 µM, 3 h, 4 °C; baseline: 37 °C): inhibited
O=C(Cc1ccc2ccccc2c1)N[C@@H](Cc1c[nH]c2ccccc12)C(=O)N[C@@H](Cc1c[nH]c2ccccc12)C(=O)N[C@@H](Cc1ccc(OP(=O)(O)O)cc1)C(=O)O — viability (HepG2; MTT; 400 µM, 3 days): ~60%
CC(C)=CCNCCOC1C2CC3CC(C2)CC1C3 (stereo not drawn) — CC50 (HepG2; cell growth or viability): 4.8 µg/mL
CCCN(CCC)CC1=C(O)C(=O)c2ccccc2C1=O — median lethal concentration (HepG2; MTT; 10% FCS; 24 h): 2080 ± 316 µM
COc1ccnc(Nc2c3c(nc4ccccc24)CCCC3)c1 — inhibition (HepG2; MTT; 50 µM, 24 h, 10% FBS): 4.25 ± 0.26%
CC[C@@H](C)[C@@H](NC(=O)[C@@H](C)NC(=O)[C@H](NC(=O)[C@@H](CC(=O)O)NC(=O)[C@@H](CCCCN)NC(=O)[C@@H](CO)NC(=O)[C@H](NC(=O)[C@@H](CC(N)=O)NC(=O)[C@@H](C)NC(=O)[C@H](NC(=O)[C@@H](CCC(=O)O)NC(=O)[C@@H](CCCCN)NC(=O)[C@H](NC(=O)[C@H](NC(=O)[C@@H](Cc1c[nH]cn1)NC(=O)[C@@H](CCCCN)NC(=O)[C@H](NC(=O)[C@@H](CCCCN)NC(=O)[C@@H](CCCCN)NC(=O)[C@H](NC(=O)[C@@H](CC(C)C)NC(=O)[C@@H](CCCCN)NC(=O)[C@@H](CC(N)=O)NC(=O)[C@@H](Cc1ccccc1)NC(=O)[C@@H](CCCNC(=N)N)NC(=O)[C@@H](CCCCN)NC(=O)[C@@H](CCCNC(=N)N)NC(=O)[C@@H](Cc1ccccc1)NC(=O)CN)C(C)C)C(C)C)[C@H](C)O)[C@H](C)CC)[C@H](C)O)C(C)C)C(C)C)C(=O)N[C@@H](C(=O)N[C@H](C)C(=O)NCC(=O)N[C@H](CO)C(=O)NCC(=O)N[C@@H](C(=O)N[C@H](C)C(=O)N[C@@H](C(=O)NCC(=O)N[C@H](C)C(=O)N[C@H](C)C(=O)N[C@H](CCSC)C(N)=O)C(C)C)C(C)C)C(C)C — no-observed-effect concentration (HepG2; cytotoxicity, measured: intracellular ATP): 433 mg/L
FC(F)(F)c1ccc(Nc2c3c(nc4ccccc24)CCCC3)cc1 — inhibition (HepG2; MTT; 50 µM, 24 h, 10% FBS): -0.52 ± 0.16%
CC(=O)N[C@@H](CC(=O)O)C(=O)N[C@@H](CCC(=O)O)C(=O)N[C@@H](CC(=O)O)C(=O)N[C@H](C(=O)NCC(=O)NCC(=O)NCC(=O)NCCNC(=O)OCC1c2ccccc2-c2ccccc21)C(C)C — metabolized fraction (HepG2; 200 µM, 2 h, 37 °C): 37.1%
COc1cc(C(=O)NCCOCCOCCOCCNC(=O)c2ccc([18F])nc2)ccc1NC(=O)C1NC(CC(C)(C)C)C(C#N)(c2ccc(Cl)cc2F)C1c1cccc(Cl)c1F (stereo not drawn) — tracer uptake (HepG2 tumour model; host not given, tumour; 30 min, tumour-bearing): 3.8 %ID/g
Cc1cccc(Nc2c3c(nc4ccccc24)CCC(C)C3)n1 (stereo not drawn) — inhibition (HepG2; MTT; 50 µM, 24 h, 10% FBS): -29.2 ± 0.33%
CC(C)CCC1=C(O)C(=O)c2ccccc2C1=O — CC50 (HepG2; cell growth or viability, MTT; 72 h): 60 µM
Clc1ccc(Nc2c3c(nc4ccccc24)CCCC3)cc1 — inhibition (HepG2; MTT; 50 µM, 24 h, 10% FBS): 18.7 ± 0.64%
O=C1C(O)=C(CN2CCCC2)C(=O)c2ccccc21 — median lethal concentration (HepG2; MTT; 10% FCS; 24 h): ≥ 3890 µM
O=C(c1ccc(Nc2c3c(nc4ccccc24)CCCC3)cc1)C1CC1 — inhibition (HepG2; MTT; 50 µM, 24 h, 10% FBS): 35 ± 1.54%
CC(=O)N[C@@H](CC(=O)O)C(=O)N[C@@H](CCC(=O)O)C(=O)N[C@H](C(=O)N[C@@H](CC(=O)O)C(=O)NCC(=O)NCC(=O)NCC(=O)NCCNC(=O)OCC1c2ccccc2-c2ccccc21)C(C)C — apoptotic level (HepG2; western blot, measured: cleaved PARP; 400 µM, 72 h; baseline: 10 µM camptothecin): 14%
O=C1C(O)=C(Nc2cccc(C(F)(F)F)c2)C(=O)c2ccccc21 — CC50 (HepG2; cytotoxicity, MTT; 72 h, 10% FBS): 180 ± 30 µM
CCNCC1=C(O)C(=O)c2ccccc2C1=O — median lethal concentration (HepG2; MTT; 10% FCS; 24 h): ≥ 4320 µM

For quick reference, copied from above:
CCCN(CCC)CC1=C(O)C(=O)c2ccccc2C1=O — median lethal concentration (HepG2; MTT; 10% FCS; 24 h): 2080 ± 316 µM
COc1ccnc(Nc2c3c(nc4ccccc24)CCCC3)c1 — inhibition (HepG2; MTT; 50 µM, 24 h, 10% FBS): 4.25 ± 0.26%
